Measurements from different studies.
Every numbered part comes from another study and shows a few of its results, in no order. Substitutions count along the parent as printed.

Set 1
Target: Myc proto-oncogene protein, bHLH-zipper, MAX partner unstated (MYC, Homo sapiens, UniProt P01106, residues 368-449)
UniProt P01106, sequence (368-449, looked up): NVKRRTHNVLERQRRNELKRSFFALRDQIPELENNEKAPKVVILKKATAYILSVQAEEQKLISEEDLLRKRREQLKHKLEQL
Method: protein-binding microarray
Form: double-stranded DNA, one strand shown
Matrix: in vitro
Tested at: not given
Setting: k-mer, scored over probes, only values ≥0.25
Reading: higher = stronger binding
| Sequence | E-score |
| --- | --- |
| AATGTGGC | 0.293 |
| CATGCTCC | 0.394 |
| CATGGCGA | 0.332 |
| AAGGCACA | 0.252 |
| CATGAGTA | 0.254 |
| ATGCGCGC | 0.273 |
| AACATGGC | 0.255 |
| ACGGGGTG | 0.293 |

Set 2
Target: RNA binding protein fox-1 homolog 2, RRM domain, GST-SBP tag (RBFOX2, Homo sapiens, UniProt O43251-10, residues 100-194)
Method: RNA Bind-n-Seq
Form: RNA
Matrix: in vitro
Tested at: 365 nM
Setting: natural RNA segment, single round, ends assumed
Reference: no-protein control
Reading: higher = stronger binding
Shared flanks, not repeated: GGGAGUUCUACAGUCCGACGAUC … UGGAAUUCUCGGGUGCCAA
Residues (chain): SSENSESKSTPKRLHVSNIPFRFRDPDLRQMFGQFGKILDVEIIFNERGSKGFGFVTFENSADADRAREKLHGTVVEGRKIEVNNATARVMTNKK
| Sequence | RBNS enrichment (R) |
| --- | --- |
| GCUCCAGCAGGAACUACCUUUCUGAACCCGCGGAGACCCGCAUAAGCCUGACCCCUUGCUUCCUCCCCGCCCCCCAGUGCGUUCUGUGAUCGCCAAGUUCAAAGCUGUGC | 0.778 |
| UUAAGACAGGUGCACUAAUGAUAACCAUUCCUUCACCAAGUAGCAACAUUCUUGCCAGAGUUCUUGGGAAACCUGUUUUUUUCUCUACUCUCCAUCUCUGCUGCUCUCAU | 0.483 |
| AUCAAAUCAUUGUUGCCUCUCAUACCAAAAUGUUCUUACCCACUGUCCUUCCCCCUUCUCUGCUUUGCAGUCCCCAUGGACUCUGGGCAUGGUGCACUGUCGUCUUUGCU | 0.532 |
| AAACAGGCCACGACUUGUCACUCAGCACUAACCCCCAGUUCUUGAACAGCCUCCUCCAGCCCUGCUUUAGGAUGACACAAUGAAUAACACCUAGGCAUAGAAACCAGUCU | 0.456 |
| GGAGCACACCUCUCAGACCAGUCAGGAACACUGGGGAGGUGACAGCAGGUCCCCAGGGGCCUGCAGGGAAUCUUUCAGCUGCACGGAUUGGGAUUUCCCUCCAAACCAAA | 0.417 |
| ACCCAUUAUAACAGAAUUUGUCAAAAGGAGUGUUUCUUGAGGAGGUAGCUUUUUUUUACCACACUACAGGACAUUACCUGUAGGCCCAGAAGACUACAGGCUGGUGUCCC | 0.327 |
| GAUAGCAGAGGAGAGGGAUGAGCCCUGCGUUUAUUUCCCUUCUGCUCGUCCUUUUCCAGGACACAAUGGAACUGUCGGAAGAAGAGUUUCUAGAAAGUUAGGAUUGGGCA | 1.05 |
| UAACACAUUAGGAUUGUGGGACACAAGAUCCUCUCUGAACCUCCUGGUUAAGGAACGUUCCUGCAAACAUUCAAGUAGACCUUCUAUAACAGACUGCAGCGUGCAUGGCC | 1.01 |

Set 3
Partner: ARF19 948-1086 (Arabidopsis thaliana, UniProt Q8RYC8)
Method: two-hybrid
Reference: out of 4 tests
Reading: higher = firmer interaction
B1: IAA18 (Arabidopsis thaliana, UniProt O24408); chain MEGYSRNGEISPKLLDLMIPQERRNWFHDEKNSVFKTEEKKLELKLGPPGEEDDDESMIRHMKKEPKDKSILSLAGKYFSPSSTKTTSHKRTAPGPVVGWPPVRSFRKNLASGSSSKLGNDSTTSNGVTLKNQKCDAAAKTTEPKRQGGMFVKINMYGVPIGRKVDLSAHNSYEQLSFTVDKLFRGLLAAQRDFPSSIEDEKPITGLLDGNGEYTLTYEDNEGDKMLVGDVPWQMFVSSVKRLRVIKTSEISSALTYGNGKQEKMRR
B2: IAA33 (Arabidopsis thaliana, UniProt Q9FKM7); chain MNSFEPQSQDSLQRRFHQDNSTTQQPRDTTTPFIPKPASKNHNNSNSSSGAAGRSFQGFGLNVEDDLVSSVVPPVTVVLEGRSICQRISLDKHGSYQSLASALRQMFVDGADSTDDLDLSNAIPGHLIAYEDMENDLLLAGDLTWKDFVRVAKRIRILPVKGNTRQVKRNE
B3: ARF8 699-811 (Arabidopsis thaliana, UniProt Q9FGV1); chain NSSNQTKNFVKVYKSGSVGRSLDISRFSSYHELREELGKMFAIEGLLEDPLRSGWQLVFVDKENDILLLGDDPWESFVNNVWYIKILSPEDVHQMGDHGEGSGGLFPQNPTHL
B4: IAA19 (Arabidopsis thaliana, UniProt O24409); chain MEKEGLGLEITELRLGLPGRDVAEKMMKKRAFTEMNMTSSGSNSDQCESGVVSSGGDAEKVNDSPAAKSQVVGWPPVCSYRKKNSCKEASTTKVGLGYVKVSMDGVPYLRKMDLGSSQGYDDLAFALDKLFGFRGIGVALKDGDNCEYVTIYEDKDGDWMLAGDVPWGMFLESCKRLRIMKRSDATGFGLQPRGVDE
B5: IAA16 (Arabidopsis thaliana, UniProt O24407); chain MINFEATELRLGLPGGNHGGEMAGKNNGKRGFSETVDLKLNLSSTAMDSVSKVDLENMKEKVVKPPAKAQVVGWPPVRSFRKNVMSGQKPTTGDATEGNDKTSGSSGATSSASACATVAYVKVSMDGAPYLRKIDLKLYKTYQDLSNALSKMFSSFTIGNYGPQGMKDFMNESKLIDLLNGSDYVPTYEDKDGDWMLVGDVPWEMFVDSCKRIRIMKGSEAIGLAPRALEKCKNRS
B6: IAA34 (Arabidopsis thaliana, UniProt Q9C5X0); chain MYCSDPPHPLHLVASDKQQKDHKLILSWKKPTMDSDPLGVFPNSPKYHPYYSQTTEFGGVIDLGLSLRTIQHEIYHSSGQRYCSNEGYRRKWGYVKVTMDGLVVGRKVCVLDHGSYSTLAHQLEDMFGMQSVSGLRLFQMESEFCLVYRDEEGLWRNAGDVPWNEFIESVERLRITRRNDAVLPF
Construct (chain): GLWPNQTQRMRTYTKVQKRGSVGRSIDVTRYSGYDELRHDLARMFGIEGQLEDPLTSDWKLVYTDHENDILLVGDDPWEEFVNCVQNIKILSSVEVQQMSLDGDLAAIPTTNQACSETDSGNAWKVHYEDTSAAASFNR
| Sequence | positive tests |
| --- | --- |
| B1 (IAA18) | 4 |
| B2 (IAA33) | 4 |
| B3 (ARF8 699-811) | 1 |
| B4 (IAA19) | 4 |
| B5 (IAA16) | 4 |
| B6 (IAA34) | 3 |

Other studies, line by line
Starting sequence: viral docking peptide; TSVRRALFTGGSD; partner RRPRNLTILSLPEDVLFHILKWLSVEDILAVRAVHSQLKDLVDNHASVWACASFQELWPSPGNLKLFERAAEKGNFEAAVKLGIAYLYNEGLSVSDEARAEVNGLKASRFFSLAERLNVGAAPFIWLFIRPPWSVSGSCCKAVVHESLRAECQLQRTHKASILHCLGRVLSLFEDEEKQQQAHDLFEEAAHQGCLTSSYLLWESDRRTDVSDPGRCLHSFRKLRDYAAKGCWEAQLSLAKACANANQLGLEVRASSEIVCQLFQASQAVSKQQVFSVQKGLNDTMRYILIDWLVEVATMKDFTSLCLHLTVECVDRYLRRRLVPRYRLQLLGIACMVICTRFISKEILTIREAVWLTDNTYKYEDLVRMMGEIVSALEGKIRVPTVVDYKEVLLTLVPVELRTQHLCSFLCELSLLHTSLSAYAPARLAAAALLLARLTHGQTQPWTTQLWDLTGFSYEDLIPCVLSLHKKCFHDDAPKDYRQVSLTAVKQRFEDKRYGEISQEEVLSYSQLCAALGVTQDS
| Variant | target | assay | test system | setting | how to read | quantity | result |
| --- | --- | --- | --- | --- | --- | --- | --- |
| F8C | CCNF, cyclin fold, Cln2 fusion (human) | yeast growth competition, sequencing | yeast | strong parent motif | reference: not given, higher = stronger binding | normalised enrichment score | 1 |

For quick reference, copied from above (set 2):
| Sequence | RBNS enrichment (R) |
| --- | --- |
| GAUAGCAGAGGAGAGGGAUGAGCCCUGCGUUUAUUUCCCUUCUGCUCGUCCUUUUCCAGGACACAAUGGAACUGUCGGAAGAAGAGUUUCUAGAAAGUUAGGAUUGGGCA | 1.05 |
| UAACACAUUAGGAUUGUGGGACACAAGAUCCUCUCUGAACCUCCUGGUUAAGGAACGUUCCUGCAAACAUUCAAGUAGACCUUCUAUAACAGACUGCAGCGUGCAUGGCC | 1.01 |
